Measured values from different studies.
Each numbered part is a random draw from the data of one study; scales do not carry over between parts. Values joined by “and” are separate records of one study, mostly repeats; a detail may differ.
UniProt O95819, sequence (whole entry, looked up): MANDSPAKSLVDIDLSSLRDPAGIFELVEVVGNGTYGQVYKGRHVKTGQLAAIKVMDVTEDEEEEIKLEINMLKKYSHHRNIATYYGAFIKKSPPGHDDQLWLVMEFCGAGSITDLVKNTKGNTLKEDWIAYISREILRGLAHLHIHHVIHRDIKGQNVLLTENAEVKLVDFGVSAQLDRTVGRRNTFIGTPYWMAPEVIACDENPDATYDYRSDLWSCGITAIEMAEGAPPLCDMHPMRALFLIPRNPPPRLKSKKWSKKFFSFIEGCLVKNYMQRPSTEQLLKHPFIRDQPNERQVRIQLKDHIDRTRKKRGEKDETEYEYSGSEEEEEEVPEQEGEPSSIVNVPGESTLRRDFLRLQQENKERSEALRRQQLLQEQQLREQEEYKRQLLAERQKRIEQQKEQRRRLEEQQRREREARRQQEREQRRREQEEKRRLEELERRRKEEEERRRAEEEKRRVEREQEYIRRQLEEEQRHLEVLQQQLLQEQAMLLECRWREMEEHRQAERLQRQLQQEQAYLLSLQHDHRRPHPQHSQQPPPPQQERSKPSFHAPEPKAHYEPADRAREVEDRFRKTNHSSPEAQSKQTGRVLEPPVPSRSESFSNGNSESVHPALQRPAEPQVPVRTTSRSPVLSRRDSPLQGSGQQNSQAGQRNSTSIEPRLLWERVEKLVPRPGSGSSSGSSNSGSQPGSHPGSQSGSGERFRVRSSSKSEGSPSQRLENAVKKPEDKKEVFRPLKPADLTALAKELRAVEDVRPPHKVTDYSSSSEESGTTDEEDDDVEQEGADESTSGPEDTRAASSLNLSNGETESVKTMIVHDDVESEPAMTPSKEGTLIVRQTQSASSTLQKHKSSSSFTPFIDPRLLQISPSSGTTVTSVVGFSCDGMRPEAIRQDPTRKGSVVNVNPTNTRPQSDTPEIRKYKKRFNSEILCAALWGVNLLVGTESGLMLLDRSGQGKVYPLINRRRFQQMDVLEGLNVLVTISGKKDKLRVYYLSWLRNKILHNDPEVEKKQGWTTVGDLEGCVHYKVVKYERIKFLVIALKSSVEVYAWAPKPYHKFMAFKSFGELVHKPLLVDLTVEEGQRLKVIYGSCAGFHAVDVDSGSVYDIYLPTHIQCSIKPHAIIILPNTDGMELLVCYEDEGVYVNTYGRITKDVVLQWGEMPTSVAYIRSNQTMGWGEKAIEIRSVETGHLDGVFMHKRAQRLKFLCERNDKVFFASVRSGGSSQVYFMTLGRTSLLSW
UniProt Q9Y2K2, sequence (whole entry, looked up): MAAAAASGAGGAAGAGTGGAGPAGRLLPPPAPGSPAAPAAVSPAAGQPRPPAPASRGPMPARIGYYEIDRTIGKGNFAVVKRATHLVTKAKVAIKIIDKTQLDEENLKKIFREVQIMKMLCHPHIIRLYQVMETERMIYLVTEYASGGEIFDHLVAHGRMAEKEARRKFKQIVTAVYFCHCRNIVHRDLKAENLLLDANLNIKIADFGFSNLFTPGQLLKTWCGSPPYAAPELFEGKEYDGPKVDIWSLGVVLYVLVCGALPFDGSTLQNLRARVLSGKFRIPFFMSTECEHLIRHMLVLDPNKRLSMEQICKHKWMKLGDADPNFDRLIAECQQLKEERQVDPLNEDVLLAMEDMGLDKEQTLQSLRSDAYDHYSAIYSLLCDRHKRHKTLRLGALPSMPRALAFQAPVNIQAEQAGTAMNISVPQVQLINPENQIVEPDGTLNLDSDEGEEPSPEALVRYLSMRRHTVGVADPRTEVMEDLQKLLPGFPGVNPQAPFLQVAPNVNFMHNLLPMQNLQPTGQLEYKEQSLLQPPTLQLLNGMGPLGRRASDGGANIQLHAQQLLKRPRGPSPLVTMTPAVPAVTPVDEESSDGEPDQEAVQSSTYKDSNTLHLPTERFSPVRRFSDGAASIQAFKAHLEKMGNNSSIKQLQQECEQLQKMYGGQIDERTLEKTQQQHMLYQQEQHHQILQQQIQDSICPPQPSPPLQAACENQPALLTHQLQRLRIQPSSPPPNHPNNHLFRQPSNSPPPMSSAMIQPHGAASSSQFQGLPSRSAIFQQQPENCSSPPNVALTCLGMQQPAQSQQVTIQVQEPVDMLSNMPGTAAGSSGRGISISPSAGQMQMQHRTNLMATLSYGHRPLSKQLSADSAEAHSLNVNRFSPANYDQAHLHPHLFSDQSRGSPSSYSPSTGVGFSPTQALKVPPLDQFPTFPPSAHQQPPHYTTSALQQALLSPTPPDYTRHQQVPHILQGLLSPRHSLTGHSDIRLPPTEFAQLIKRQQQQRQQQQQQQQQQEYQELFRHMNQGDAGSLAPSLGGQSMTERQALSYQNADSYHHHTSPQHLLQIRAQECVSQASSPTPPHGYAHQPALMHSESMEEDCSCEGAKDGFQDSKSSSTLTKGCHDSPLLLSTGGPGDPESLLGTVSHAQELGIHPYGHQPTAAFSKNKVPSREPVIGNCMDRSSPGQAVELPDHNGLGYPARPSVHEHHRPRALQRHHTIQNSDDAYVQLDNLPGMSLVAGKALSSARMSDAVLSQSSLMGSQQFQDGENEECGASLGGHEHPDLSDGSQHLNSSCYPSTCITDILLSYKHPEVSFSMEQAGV
UniProt Q13523, sequence (whole entry, looked up): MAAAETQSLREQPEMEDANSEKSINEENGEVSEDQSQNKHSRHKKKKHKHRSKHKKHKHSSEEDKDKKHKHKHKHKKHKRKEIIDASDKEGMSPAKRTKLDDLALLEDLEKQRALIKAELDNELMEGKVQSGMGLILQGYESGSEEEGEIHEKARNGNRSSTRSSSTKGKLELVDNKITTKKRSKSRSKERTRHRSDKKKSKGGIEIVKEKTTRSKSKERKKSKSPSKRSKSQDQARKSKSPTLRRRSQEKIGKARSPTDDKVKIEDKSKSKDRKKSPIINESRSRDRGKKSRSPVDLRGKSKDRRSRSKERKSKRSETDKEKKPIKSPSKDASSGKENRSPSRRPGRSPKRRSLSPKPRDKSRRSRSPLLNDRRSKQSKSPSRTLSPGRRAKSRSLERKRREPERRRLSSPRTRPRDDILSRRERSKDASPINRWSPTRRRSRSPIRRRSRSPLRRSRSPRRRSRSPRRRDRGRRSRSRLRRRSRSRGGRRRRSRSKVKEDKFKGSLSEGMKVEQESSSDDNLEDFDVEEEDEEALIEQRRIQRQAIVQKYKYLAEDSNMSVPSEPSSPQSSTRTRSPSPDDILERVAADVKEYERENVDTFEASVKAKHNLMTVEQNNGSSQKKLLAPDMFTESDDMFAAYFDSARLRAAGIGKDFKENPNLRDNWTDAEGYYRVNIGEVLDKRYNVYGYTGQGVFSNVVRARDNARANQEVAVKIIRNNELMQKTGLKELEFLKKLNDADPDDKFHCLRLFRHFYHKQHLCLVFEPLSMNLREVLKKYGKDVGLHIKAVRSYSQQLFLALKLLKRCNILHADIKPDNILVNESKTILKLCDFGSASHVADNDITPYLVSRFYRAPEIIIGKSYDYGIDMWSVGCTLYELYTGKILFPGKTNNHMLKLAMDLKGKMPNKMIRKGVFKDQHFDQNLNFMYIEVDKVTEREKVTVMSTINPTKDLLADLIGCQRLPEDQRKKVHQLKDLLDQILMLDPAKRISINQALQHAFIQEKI
UniProt P0C264, sequence (whole entry, looked up): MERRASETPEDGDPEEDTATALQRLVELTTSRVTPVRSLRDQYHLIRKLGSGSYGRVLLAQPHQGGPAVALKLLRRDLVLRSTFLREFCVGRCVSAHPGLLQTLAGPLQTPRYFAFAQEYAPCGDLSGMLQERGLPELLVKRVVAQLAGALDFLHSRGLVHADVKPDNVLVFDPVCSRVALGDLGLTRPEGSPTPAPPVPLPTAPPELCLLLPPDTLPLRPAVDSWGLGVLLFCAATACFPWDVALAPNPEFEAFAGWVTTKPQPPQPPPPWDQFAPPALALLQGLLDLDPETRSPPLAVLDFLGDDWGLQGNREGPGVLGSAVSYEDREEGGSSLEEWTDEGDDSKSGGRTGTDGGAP
UniProt Q9P286, sequence (whole entry, looked up): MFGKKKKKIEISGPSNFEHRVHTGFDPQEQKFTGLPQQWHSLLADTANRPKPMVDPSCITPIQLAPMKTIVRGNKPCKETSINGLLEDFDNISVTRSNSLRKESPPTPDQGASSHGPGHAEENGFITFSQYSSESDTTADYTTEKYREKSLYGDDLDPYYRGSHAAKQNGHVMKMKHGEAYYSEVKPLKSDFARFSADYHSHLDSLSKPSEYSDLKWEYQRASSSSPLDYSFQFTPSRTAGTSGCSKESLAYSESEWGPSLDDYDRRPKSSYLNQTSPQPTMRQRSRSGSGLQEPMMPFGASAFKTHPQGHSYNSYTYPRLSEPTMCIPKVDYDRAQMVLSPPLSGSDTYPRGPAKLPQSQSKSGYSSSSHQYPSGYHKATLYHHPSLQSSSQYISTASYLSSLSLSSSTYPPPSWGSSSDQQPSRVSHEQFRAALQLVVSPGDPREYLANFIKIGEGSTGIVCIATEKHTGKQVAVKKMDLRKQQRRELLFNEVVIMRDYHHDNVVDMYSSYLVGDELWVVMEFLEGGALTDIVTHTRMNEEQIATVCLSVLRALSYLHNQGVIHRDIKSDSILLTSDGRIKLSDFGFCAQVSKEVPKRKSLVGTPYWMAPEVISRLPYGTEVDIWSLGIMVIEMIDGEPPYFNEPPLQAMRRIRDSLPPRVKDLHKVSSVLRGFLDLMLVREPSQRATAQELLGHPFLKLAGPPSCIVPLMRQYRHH
UniProt Q9NY57, sequence (whole entry, looked up): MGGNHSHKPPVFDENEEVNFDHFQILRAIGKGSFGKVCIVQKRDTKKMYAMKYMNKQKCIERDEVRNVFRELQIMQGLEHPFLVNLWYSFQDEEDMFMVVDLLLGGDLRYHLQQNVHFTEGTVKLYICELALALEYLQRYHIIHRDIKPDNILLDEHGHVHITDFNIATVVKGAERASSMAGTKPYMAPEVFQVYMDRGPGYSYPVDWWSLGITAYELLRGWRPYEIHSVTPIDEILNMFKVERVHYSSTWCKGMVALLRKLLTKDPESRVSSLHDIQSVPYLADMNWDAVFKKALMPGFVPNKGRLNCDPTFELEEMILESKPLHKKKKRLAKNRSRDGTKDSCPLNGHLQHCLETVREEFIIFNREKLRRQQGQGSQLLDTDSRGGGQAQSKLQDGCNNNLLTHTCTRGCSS

Set 1
SMILES: CC(C)S(=O)(=O)c1ccc2nccc(Nc3ccc4sc(C5CCCC5)nc4c3)c2c1.Cl
Observed: kinase activity
Mode: inhibitor
Tested at: 1 µM
It gave 109% for remaining activity (MAPK11 (Homo sapiens, UniProt Q15759)).
ABL2 (Homo sapiens, UniProt P42684) — remaining activity: 86%.
For IKBKB (Homo sapiens, UniProt O14920): remaining activity read 116%.
It gave 92% for remaining activity (EGFR (Homo sapiens, UniProt P00533)).
The remaining activity was 103% (ZAP70 (Homo sapiens, UniProt P43403)).
ARAF (Homo sapiens, UniProt P10398) — remaining activity: 106%.
It gave 100% and 121% for remaining activity (MAP4K4 (Homo sapiens, UniProt O95819)).

Set 2
Compound: Cc1nc(N2CC[C@@H](O)C2)ncc1-c1cc(C(F)(F)F)cc2[nH]ncc12
Technique: competition with immobilised ligand
Tested at: 1 µM
The remaining binding was 86% (PIP5K1A (Homo sapiens, UniProt Q99755); cell-free assay).
The remaining binding was 53% (PI4KB (Homo sapiens, UniProt Q9UBF8); cell-free assay).
For SBK3 (Homo sapiens, UniProt P0C264); binding: remaining binding read 100%.
For PRKACA (Homo sapiens, UniProt P17612); cell-free assay: remaining binding read 83%.
The remaining binding was 99% (PAK5 (Homo sapiens, UniProt Q9P286); cell-free assay).
Tyrosine-protein kinase ABL1, phosphorylated (ABL1, Homo sapiens, UniProt P00519, Y253F); binding — remaining binding: 70%.
It gave 100% for remaining binding (EPHB3 (Homo sapiens, UniProt P54753); cell-free assay).
PRPF4B (Homo sapiens, UniProt Q13523); cell-free assay — remaining binding: 100%.
It gave 83% for remaining binding (MAP2K1 (Homo sapiens, UniProt Q02750); binding).
The remaining binding was 60% (PIK3CB (Homo sapiens, UniProt P42338); cell-free assay).
For NEK1 (Homo sapiens, UniProt Q96PY6); binding: remaining binding read 100%.
IRAK3 (Homo sapiens, UniProt Q9Y616); binding — remaining binding: 85%.
The remaining binding was 96% (DCLK3 (Homo sapiens, UniProt Q9C098); binding).
OXSR1 (Homo sapiens, UniProt O95747); binding — remaining binding: 67%.
It gave 100% for remaining binding (MELK (Homo sapiens, UniProt Q14680); binding).
For STK32B (Homo sapiens, UniProt Q9NY57); binding: remaining binding read 100%.
The remaining binding was 53% (SIK3 (Homo sapiens, UniProt Q9Y2K2); binding).
It gave 86% for remaining binding (STK32C (Homo sapiens, UniProt Q86UX6); binding).
It gave 100% for remaining binding (BMPR1A (Homo sapiens, UniProt P36894); binding).
For EPHA2 (Homo sapiens, UniProt P29317); cell-free assay: remaining binding read 100%.
IGF1R (Homo sapiens, UniProt P08069); cell-free assay — remaining binding: 100%.

Set 3
Structure (SMILES): NC(N)=NC(=O)c1nc(Cl)c(N2CCCCCC2)nc1N
Observed: β-arrestin recruitment
Mode: agonist
Technique: PRESTO-Tango
Tested at: 10 µM
Reference: untreated
It gave 0.74 for “fold over basal” (ADORA2A (Homo sapiens, UniProt P29274)).
C5AR2 (Homo sapiens, UniProt Q9P296) — “fold over basal”: 1.23.
For Motilin receptor (MLNR, Homo sapiens, UniProt O43193): “fold over basal” read 0.86.
The “fold over basal” was 0.78 (C3AR1 (Homo sapiens, UniProt Q16581)).
GPR37 (Homo sapiens, UniProt O15354) — “fold over basal”: 1.12.
It gave 0.91 for “fold over basal” (RXFP3 (Homo sapiens, UniProt Q9NSD7)).
It gave 0.69 fold for “fold over basal” (GHRHR (Homo sapiens, UniProt Q02643)).
The “fold over basal” was 0.61 (CXCR6 (Homo sapiens, UniProt O00574)).
For MRGPRD (Homo sapiens, UniProt Q8TDS7): “fold over basal” read 0.96.

Set 4
Compound: COc1ccc(-c2c(Nc3ccccn3)[nH]c3c(C4=CCCCC4)c(-c4ccccc4)nn3c2=O)cc1
Host: cancer patients
Sample: plasma
Route: oral
Time: cycle 0 day -3
Setting: single dose
400 mg — “terminal half-life, median”: 16.2 h.
50 mg — “terminal half-life, median”: 17.8 h.
It gave 38.4 h for “terminal half-life, median” (200 mg).
150 mg — “terminal half-life, median”: 32.7 h.
100 mg — “terminal half-life, median”: 29.1 h.

A few entries again (set 2):
For PRKACA (Homo sapiens, UniProt P17612); cell-free assay: remaining binding read 83%.
The remaining binding was 99% (PAK5 (Homo sapiens, UniProt Q9P286); cell-free assay).
Tyrosine-protein kinase ABL1, phosphorylated (ABL1, Homo sapiens, UniProt P00519, Y253F); binding — remaining binding: 70%.
It gave 100% for remaining binding (EPHB3 (Homo sapiens, UniProt P54753); cell-free assay).
PRPF4B (Homo sapiens, UniProt Q13523); cell-free assay — remaining binding: 100%.
It gave 83% for remaining binding (MAP2K1 (Homo sapiens, UniProt Q02750); binding).
The remaining binding was 60% (PIK3CB (Homo sapiens, UniProt P42338); cell-free assay).
